Experimental data collected from several papers.
Compare with care: the assays were run in different laboratories. ± marks the error that the study gave.

For `Cc1nc2cccc(N)c2c(=O)n1C1CCC(=O)NC1=O` (stereo not drawn), the CL/F was 4.18 L/h (healthy adults; oral, 3 mg, fasted geometric mean alone).
The CL/F of `Cc1ccccc1-c1cc(N2CCN(C)CC2)ncc1N(C)C(=O)C(C)(C)c1cc(C(F)(F)F)cc(C(F)(F)F)c1` is reported as 20.9 L/h (healthy volunteers; oral, 300 mg single dose, mean, with: palonosetron 0.50 mg fixed combination).
`CS(=O)(=O)c1ccc([C@@H](O)[C@@H](CF)NC(=O)C(Cl)Cl)cc1` gave a CL/F of 1.33 ± 0.167 mL/min/kg (chicken, HY-Line Brown hens, plasma; oral, 20 mg/kg).
For `Cc1nc(-c2ccc(OCC(C)C)c(C#N)c2)sc1C(=O)O`, “CL/F per body weight” read “no effect” (Japanese paediatric patients; dose not given, mild or moderate renal dysfunction; relative to: adult population).
For `O=C1c2cccc3c2[C@H](CCC3)CN1[C@@H]1CN2CCC1CC2`, the CL/F was 11.5 L/h (healthy volunteers; oral, 0.50 mg single dose, mean, with: netupitant 300 mg fixed combination).
With `CCCCC[C@H](O)CC[C@@H]1[C@H]2Cc3cccc(OCC(=O)O)c3C[C@H]2C[C@H]1O` the CL/F was 75.8 ± 57.6 L/h (Japanese patients with PAH, plasma; inhaled, 54 µg four times daily, week 12).
The CL/F of `Nc1nc(NC2CC2)c2ncn([C@H]3C=C[C@@H](CO)C3)c2n1` is reported as 20.3 mL/min/kg (HIV-infected patients aged 9-18 years, plasma; oral, 8 mg/kg).
`CC[C@H](C)[C@H](NC(=O)[C@H](Cc1ccccc1)NC(=O)[C@H](CC(=O)O)NC(=O)[C@H](CCCNC(=N)N)NC(=O)[C@H](C)NC(=O)[C@H](C)NC(=O)[C@H](CC(C)C)NC(=O)[C@H](CC(N)=O)NC(=O)[C@H](CC(=O)O)NC(=O)[C@H](CC(C)C)NC(=O)[C@@H](NC(=O)[C@@H](NC(=O)[C@H](CC(N)=O)NC(=O)[C@H](CCSC)NC(=O)[C@H](CCC(=O)O)NC(=O)[C@H](CC(=O)O)NC(=O)[C@H](CO)NC(=O)[C@H](Cc1ccccc1)NC(=O)[C@H](CO)NC(=O)CNC(=O)[C@H](CC(=O)O)NC(=O)CNC(=O)[C@@H](N)Cc1c[nH]cn1)[C@@H](C)O)[C@@H](C)CC)C(=O)N[C@@H](CC(N)=O)C(=O)N[C@@H](Cc1c[nH]c2ccccc12)C(=O)N[C@@H](CC(C)C)C(=O)N[C@H](C(=O)N[C@@H](CCC(N)=O)C(=O)N[C@H](C(=O)N[C@@H](CCCCN)C(=O)N[C@H](C(=O)N[C@H](C(=O)N[C@@H](CC(=O)O)C(=O)O)[C@@H](C)O)[C@@H](C)CC)[C@@H](C)O)[C@@H](C)CC` has a CL/F difference of no more than 10% (Japanese patients, mild renal impairment; subcutaneous, 0.05 mg/kg; relative to: normal renal function).
The CL/F of `CC(C(=O)O)c1ccc(-c2ccccc2)c(F)c1` (stereo not drawn) is reported as 1.84 ± 0.582 L/h (healthy volunteers; oral, 100 mg, arithmetic mean, with: control beverage 250 mL).

For quick reference, copied from above:
For `Cc1nc(-c2ccc(OCC(C)C)c(C#N)c2)sc1C(=O)O`, “CL/F per body weight” read “no effect” (Japanese paediatric patients; dose not given, mild or moderate renal dysfunction; relative to: adult population).
